{"data": "Experimental data of several laboratories", "note": "Numbered parts are unrelated; each lists some results of a single study. ± gives the spread as reported.", "UniProt Q00987, sequence (whole entry, looked up)": "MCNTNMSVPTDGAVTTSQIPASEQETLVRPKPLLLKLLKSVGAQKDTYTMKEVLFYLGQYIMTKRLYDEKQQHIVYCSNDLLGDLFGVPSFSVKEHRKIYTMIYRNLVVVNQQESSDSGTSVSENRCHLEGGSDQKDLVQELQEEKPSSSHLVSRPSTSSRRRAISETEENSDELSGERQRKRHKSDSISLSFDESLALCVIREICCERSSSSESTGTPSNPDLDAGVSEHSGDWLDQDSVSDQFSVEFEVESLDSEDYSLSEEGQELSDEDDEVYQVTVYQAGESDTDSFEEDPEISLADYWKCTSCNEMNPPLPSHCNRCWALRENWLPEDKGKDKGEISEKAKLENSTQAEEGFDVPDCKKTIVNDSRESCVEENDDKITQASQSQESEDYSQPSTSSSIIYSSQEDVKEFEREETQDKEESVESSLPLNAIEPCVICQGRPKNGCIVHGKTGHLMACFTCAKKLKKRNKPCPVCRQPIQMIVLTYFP"}
{"data": "Sample 1", "cell line": "MV4-11 AML cells"}
{"SMILES": "NC1CC1c1ccc(NC(=O)C(CC2CCCCC2)NC(=O)OCc2ccccc2)cc1 (stereo not drawn)", "IC50 [µM]": "13.2 ± 2.2"}
{"SMILES": "NC1CC1c1ccc(NC(=O)C(Cc2ccc(Br)cc2)NC(=O)OCc2ccccc2)cc1 (stereo not drawn)", "IC50 [µM]": "4.6 ± 0.5"}
{"SMILES": "NC1CC1c1ccc(NC(=O)C(Cc2ccc3ccccc3c2)NC(=O)OCc2ccccc2)cc1 (stereo not drawn)", "IC50 [µM]": "15.4 ± 2.7"}
{"data": "Sample 2", "Structure (SMILES)": "CC[C@H](C)[C@H](NC(=O)[C@H](C)NC(=O)[C@H](CCC(=O)O)NC(=O)[C@H](Cc1c[nH]cn1)NC(=O)[C@@H](NC(=O)[C@H](CCCCN)NC(=O)[C@H](CCC(N)=O)NC(=O)[C@H](Cc1ccccc1)NC(=O)[C@@H](NC(=O)[C@H](CCCCN)NC(=O)[C@H](CCCCN)NC(=O)[C@H](CC(C)C)NC(=O)[C@H](C)NC(=O)[C@H](CC(N)=O)NC(=O)[C@@H](N)CC(C)C)C(C)C)[C@@H](C)CC)C(=O)N[C@@H](CCCCN)C(N)=O", "time": "18 h", "temperature": "37 °C"}
{"organism": "Pseudomonas aeruginosa", "test system": "4007, resistant", "MIC": "4 µM"}
{"organism": "Pseudomonas aeruginosa", "test system": "4891, resistant", "MIC": "8 µM"}
{"organism": "Escherichia coli", "test system": "CCARM 1229, resistant", "MIC": "4 µM"}
{"organism": "Klebsiella pneumoniae", "test": "broth microdilution", "test system": "ATCC 13883", "MIC": "16 µM"}
{"organism": "Acinetobacter baumannii", "test": "broth microdilution", "test system": "ATCC 19606", "MIC": "4 µM"}
{"organism": "Staphylococcus aureus", "test": "broth microdilution", "test system": "ATCC 25923", "MIC": "4 µM"}
{"data": "Mixed results"}
{"Structure (SMILES)": "CSCC[C@@H]1NC(=O)[C@@H](Cc2ccccc2)NC(=O)[C@H](CC(=O)O)NC(=O)CNC(=O)[C@H](CCCNC(=N)N)NC1=O", "target or system": "A549", "conditions": "48 h, 10% FBS", "endpoint": "IC50", "value": "> 10 µM"}
{"Structure (SMILES)": "C[C@@H]1O[C@@H](n2c3ccccc3c3c4c(c5c6ccccc6[nH]c5c32)CNC4=O)C[C@@H](N)[C@H]1O", "target or system": "Calu-3", "test": "cytotoxicity, PrestoBlue", "conditions": "48 h", "endpoint": "CC50", "value": "> 100 µM"}
{"Structure (SMILES)": "CC[C@H](C)[C@@H]1NC(=O)[C@@H]2CSSC[C@@H]3NC(=O)[C@H](C(C)C)NC(=O)CNC(=O)CNC(=O)[C@H](C)NC(=O)[C@H](CO)NC(=O)[C@H](CC(C)C)NC(=O)[C@H](CC(C)C)NC(=O)[C@H](CC(N)=O)NC(=O)[C@H](Cc4c[nH]c5ccccc45)NC(=O)[C@H](Cc4ccc(O)cc4)NC(=O)[C@H](CCC(=O)O)NC(=O)[C@H](C)NC(=O)[C@H](Cc4ccccc4)NC(=O)[C@H](CO)NC(=O)[C@H]([C@@H](C)O)NC(=O)[C@@H]4CCCN4C(=O)[C@H](C)NC(=O)[C@H](CCCNC(=N)N)NC(=O)[C@H](CO)NC(=O)[C@H](C)NC(=O)CNC(=O)[C@H](CO)NC(=O)CNC(=O)[C@H](CO)NC(=O)CNC(=O)[C@@H]4CSSC[C@H](NC(=O)[C@H](CC(=O)O)NC(=O)[C@H](CO)NC(=O)[C@H](CC(=O)O)NC(=O)[C@H](CCCNC(=N)N)NC(=O)[C@H](CCCNC(=N)N)NC(=O)[C@H](CSSC[C@H](NC1=O)C(=O)N[C@@H](CCCNC(=N)N)C(=O)NCC(=O)N[C@@H](CC(N)=O)C(=O)NCC(=O)N[C@@H](Cc1ccc(O)cc1)C(=O)N4)NC(=O)[C@H](CCCNC(=N)N)NC(=O)[C@H](CCC(N)=O)NC(=O)[C@H](CC(C)C)NC(=O)[C@H]([C@@H](C)CC)NC(=O)[C@H](CCCCN)NC(=O)[C@@H]1CCCN1C3=O)C(=O)N1CCC[C@H]1C(=O)NCC(=O)N[C@@H](C)C(=O)N2", "target or system": "E3 ubiquitin-protein ligase Mdm2, p53-binding domain (MDM2, Homo sapiens, UniProt Q00987)", "test": "binding, fluorescence polarization", "conditions": "FITC-labelled derivative", "endpoint": "Kd", "value": "0.0023 ± 0.0001 µM"}
{"note": "Some of these lines once more (sample 2):"}
{"organism": "Acinetobacter baumannii", "test": "broth microdilution", "test system": "ATCC 19606", "MIC": "4 µM"}
